Measurements of several laboratories.
Parts stem from different laboratories: compare values within a part only.

Study 1 — technique: universal PBM; molecule type: double-stranded DNA, one strand shown; sample: in vitro; concentration: 600 nM; direction: higher = stronger binding
Target: Sal-like protein 4, full length isoform A (SALL4, Homo sapiens, UniProt Q9UJQ4, residues 1-1053)
UniProt Q9UJQ4, sequence (whole entry, looked up): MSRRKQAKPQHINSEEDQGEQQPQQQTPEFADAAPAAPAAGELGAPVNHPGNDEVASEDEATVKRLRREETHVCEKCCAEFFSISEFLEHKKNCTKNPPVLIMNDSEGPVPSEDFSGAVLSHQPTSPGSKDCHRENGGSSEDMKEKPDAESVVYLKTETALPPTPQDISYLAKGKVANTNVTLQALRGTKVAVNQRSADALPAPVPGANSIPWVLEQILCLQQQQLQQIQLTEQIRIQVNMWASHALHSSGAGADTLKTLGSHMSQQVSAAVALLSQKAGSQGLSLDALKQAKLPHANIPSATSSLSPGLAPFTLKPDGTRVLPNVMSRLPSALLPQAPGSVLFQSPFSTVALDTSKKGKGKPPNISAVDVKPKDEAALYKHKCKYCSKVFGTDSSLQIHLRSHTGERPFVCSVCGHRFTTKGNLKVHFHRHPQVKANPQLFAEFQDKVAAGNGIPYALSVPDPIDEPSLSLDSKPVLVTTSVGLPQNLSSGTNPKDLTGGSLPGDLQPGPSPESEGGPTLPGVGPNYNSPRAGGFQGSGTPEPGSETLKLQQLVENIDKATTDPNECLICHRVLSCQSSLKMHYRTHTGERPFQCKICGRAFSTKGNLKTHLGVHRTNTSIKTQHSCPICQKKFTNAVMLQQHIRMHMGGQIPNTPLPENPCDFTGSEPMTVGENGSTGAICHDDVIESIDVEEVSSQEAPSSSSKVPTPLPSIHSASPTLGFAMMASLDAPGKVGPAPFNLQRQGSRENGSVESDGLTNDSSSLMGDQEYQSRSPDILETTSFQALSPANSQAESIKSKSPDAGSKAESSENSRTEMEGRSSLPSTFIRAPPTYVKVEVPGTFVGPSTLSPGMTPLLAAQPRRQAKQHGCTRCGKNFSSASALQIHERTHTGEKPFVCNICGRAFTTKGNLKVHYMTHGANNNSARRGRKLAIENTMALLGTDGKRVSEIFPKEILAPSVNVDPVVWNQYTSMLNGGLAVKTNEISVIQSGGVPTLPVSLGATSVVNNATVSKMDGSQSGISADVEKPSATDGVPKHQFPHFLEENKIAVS
Notes: 8-mer, flanks averaged, mean of replicates
The E-score of `GGGACGAA` is reported as -0.125.
The E-score of `AGGCTATA` is reported as 0.142.
`CCCAACTA` gave an E-score of 0.0638.
The E-score of `CGGGTCAC` is reported as -0.376.
With `ACTACGCA` the E-score was -0.11.
The E-score of `AATAAAGG` is reported as 0.0799.
For `ACATCGCT`, the E-score was 0.091.
`AATCCGGA` has an E-score of -0.0605.
With `ATCCCACG` the E-score was -0.141.
`ACGCCTTG` gave an E-score of -0.167.
`AGAATTCT` gave an E-score of 0.148.
The E-score of `ACACGCAA` is reported as 0.0183.
The E-score of `ACCCCATG` is reported as -0.0941.
`CGTTTTCA` gave an E-score of -0.0299.
`ACTAATTA` has an E-score of 0.349.
`AACTGATG` gave an E-score of 0.131.
`AGAGAGAT` has an E-score of 0.103.
The E-score of `ACTCGATG` is reported as -0.019.
With `AATTTTCG` the E-score was 0.333.
`ATCTGTCC` has an E-score of -0.153.
The E-score of `CGGGAGTC` is reported as -0.2.
For `AGTTTGTC`, the E-score was 0.0715.

Study 2 — technique: protein binding microarray; molecule type: double-stranded DNA, one strand shown; sample: in vitro; concentration: not given; relative to: not given; direction: higher = stronger binding
Target: Histone acetyltransferase KAT6A, winged helix 2, GST fusion (KAT6A, Homo sapiens, UniProt Q92794, residues 85-181)
Notes: 8-mer, flanks averaged, mean of 2 arrays, mostly near background
Target sequence (chain): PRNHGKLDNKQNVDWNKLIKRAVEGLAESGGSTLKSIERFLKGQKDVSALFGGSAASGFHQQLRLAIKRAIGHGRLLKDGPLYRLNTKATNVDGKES
`AATGCCAA` has an E-score of 0.0652.
`GTTAGACA` gave an E-score of 0.0771.
`TCCACCAA` gave an E-score of 0.108.
`ATCGACCC` gave an E-score of -0.00314.
The E-score of `AGCGGAAG` is reported as 0.0827.
For `ATATGCCA`, the E-score was 0.0774.
`ACCGTCTG` gave an E-score of -0.125.
`CCGCGAGA` gave an E-score of -0.0608.
`CCATTACG` gave an E-score of -0.214.
With `CGTGAATA` the E-score was -0.162.
For `TACTCAGA`, the E-score was 0.155.
With `AAACCGAG` the E-score was 0.0441.
`AGAGAGAA` has an E-score of 0.0733.
The E-score of `CTACATCC` is reported as -0.159.
With `CATGGCCC` the E-score was -0.0488.
`GCCGTCAC` gave an E-score of 0.181.
`ATGTGGGA` has an E-score of -0.19.
`CTTAGGGC` gave an E-score of 0.123.
The E-score of `ACTCCCCT` is reported as 0.0275.
`ATTCTCCC` has an E-score of 0.0513.
The E-score of `CCAGGCTA` is reported as 0.0616.
The E-score of `ATAGGCAA` is reported as -0.0634.
For `GTGTCTAA`, the E-score was 0.0408.
`GGATGCCC` gave an E-score of -0.0101.
`GCGCATTA` gave an E-score of 0.141.

Study 3 — technique: protein-binding microarray; molecule type: double-stranded DNA, one strand shown; sample: in vitro; concentration: 0.8 µM; notes: whole 60-bp probe, no competitor; direction: higher = stronger binding; constant ends, left off below: … GTCTTGATTCGCTTGACGCTGCTG
Target: Centromere-binding protein 1, full length, N-terminal tag (CBF1, Saccharomyces cerevisiae, UniProt P17106, residues 1-351)
UniProt P17106, sequence (whole entry, looked up): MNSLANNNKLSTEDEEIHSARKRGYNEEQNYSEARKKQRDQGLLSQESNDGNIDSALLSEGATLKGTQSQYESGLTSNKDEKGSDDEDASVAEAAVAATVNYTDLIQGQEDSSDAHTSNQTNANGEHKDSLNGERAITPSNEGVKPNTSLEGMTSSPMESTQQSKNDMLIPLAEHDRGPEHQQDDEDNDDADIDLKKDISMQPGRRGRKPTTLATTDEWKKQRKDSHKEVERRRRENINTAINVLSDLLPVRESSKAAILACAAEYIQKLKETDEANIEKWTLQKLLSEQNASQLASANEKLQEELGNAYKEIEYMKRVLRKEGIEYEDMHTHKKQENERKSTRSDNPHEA
`CTATGGAACCATGTACACATGATCCTTTTACGGTTC` gave a fluorescence intensity of 1260 a.u.
For `CTAAAGCTAATAAATATCATGTGGAAACTTTTCTTC`, the fluorescence intensity was 882 a.u.
For `CTAAAGAAAAGTAGTTGTCACGTTCCTGAGGTTTTC`, the fluorescence intensity was 1310 a.u.
`CTATTCCAGACATGTTGCGTGTTGTTATTCACTTTC` gave a fluorescence intensity of 540 a.u.
`GAAATGGTAGGAGCACGCGTGAAAGCAGGGTCTTAG` has a fluorescence intensity of 598 a.u.
With `CTACACTAACGAAGTGACATCATGGTAAATTCATTC` the fluorescence intensity was 546 a.u.
The fluorescence intensity of `CCTAACTACTATAATCACGCTGCATAGCTTCGTACA` is reported as 689 a.u.
With `CTAACCCTGCTTTCACGCGTGCTCCTACCATTTTTC` the fluorescence intensity was 588 a.u.
With `GAATGTATCTGTGCCCATGTGATCTGTACCTTTTAG` the fluorescence intensity was 3100 a.u.
`GAATTGAAATGATGACATGTGGAAATATAACAGTAG` has a fluorescence intensity of 747 a.u.
For `TGTACGAAGCTATGTGTCACCTCTATAGTAGTTAGG`, the fluorescence intensity was 508 a.u.
For `CTAAGTAAACTAAGTCATGTTAATCGTTTGGATTTC`, the fluorescence intensity was 524 a.u.
`GAAATTCATACGCATCTCATGATGAGTCGAGCGTAG` has a fluorescence intensity of 525 a.u.
With `CCTAACTACTATAATCATGAGATATAGCTTCGTACA` the fluorescence intensity was 551 a.u.
The fluorescence intensity of `CTATCAAAAATAATTGACGTCATCGCTACAAGTTTC` is reported as 536 a.u.
For `CTAGTAAAAACCTCTCACATGTTTTTCTCTGCTTTC`, the fluorescence intensity was 786 a.u.
With `CTACTGACACTTCCCCACGATATTTATCATTTTTTC` the fluorescence intensity was 504 a.u.
`GAACTTACAACTGGTGGTGGTTCATTACCTACGTAG` has a fluorescence intensity of 513 a.u.
`CTAATAATGCTATCACACGTGCATAATAAAATATTC` gave a fluorescence intensity of 5940 a.u.
`GAAAAACAGGGTATAGACGTGATGTCAGCTTAATAG` gave a fluorescence intensity of 565 a.u.
With `GAACACGAGAATAATCACGAGAATAGAATGCACTAG` the fluorescence intensity was 945 a.u.
`CTAATTGTTACAGCACAAATCACGCGTATTTTCTTC` has a fluorescence intensity of 1120 a.u.
`CTATCGGAGAAGGTGGTCAGGCACACGTGATTCTTC` has a fluorescence intensity of 12500 a.u.
For `CTACAATCATTCGCGCACGAGGCATGGACAGAATTC`, the fluorescence intensity was 827 a.u.
For `CTAGGTGAGAATCCTTCTGATGCATACTTTATGTTC`, the fluorescence intensity was 503 a.u.

Study 4 — technique: RNA Bind-n-Seq; molecule type: RNA; sample: in vitro; concentration: 365 nM; relative to: no-protein control; direction: higher = stronger binding
Target: RNA binding protein fox-1 homolog 2, RRM domain, GST-SBP tag (RBFOX2, Homo sapiens, UniProt O43251-10, residues 100-194)
Notes: natural RNA segment, single round, ends assumed
Constant ends, left off below: GGGAGUUCUACAGUCCGACGAUC … UGGAAUUCUCGGGUGCCAA
Construct (chain): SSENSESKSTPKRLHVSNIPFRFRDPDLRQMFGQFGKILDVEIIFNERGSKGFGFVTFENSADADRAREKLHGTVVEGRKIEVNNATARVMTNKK
For `UCUCUUUGACCCGUUCUGGUCUAUUGUGUAAAUAUUUAUUUAGACUAUUUUGAUAAUACAUAUUAUUUACCCCACUGUAACAUCCUGUAAACUAAAUGCGUUUUUAAGCA`, “RBNS enrichment (R)” read 1.06.
Under “RBNS enrichment (R)”, `CCAGAGCAACUUCCAGCAAGGCUGGUCUGGGUCUCUGCCCACCAGGCGGGGAGGUGUUCAAAGACAUCUCCCUCAGUGCGGAUUUAUAUAUAUAUUUUUCCUUCACUGUG` is recorded as 0.26.
`UUUAAUCACUAGCCAAAUUAAAUAAAAGCAUUUAUGAGAACUCUAAACCUUUCUGUAUUUGAGAGAGAUGCAAACUUCUAGAGUAAAAGUUGAAUAAAAAGUCACAGAGG` — result for “RBNS enrichment (R)”: 0.719.
`UGCUGCAGGCCAAGCUGGGUGUGGUAUUUAGGGCAGCUCAGCAGGGGGAACUUGUCCCCAUGGUCAGAGGAGACCCAGCUGUCCUGCACCCCCUUGCAGAUGAGUAUCAC` — result for “RBNS enrichment (R)”: 2.66.
`UUAAGUGACAAACACGGUCAAAAGCUUAAGGGACAGGUUUUAUGGUUGCUUGUGUAAUAAAGCAUGUCCUUCGUAUGUCACAGUUUGGGGCAACGGAAGUCUUUUAGUGA` — result for “RBNS enrichment (R)”: 25.2.
Under “RBNS enrichment (R)”, `UUUGAAAGUUUCCAUUUUUUAAAGUUACCCUCGUUUUCAAAGGUAUUUUCUAAACAGAUCUUUAAUGGACUAUUUAAACCGAAUUUAAGGAAUUCACACACGACAGUUGA` is recorded as 0.715.
`AAGAAAUGUUAAGACUCGUGAAAAGAAUUACUAUAAGGUACUGUGAAAUAACUGCGAUUUUGUGAGCAAAACAUACUUGGAAAUGCUGAUUGAUUUUUAUGCUUGUUAGU` — result for “RBNS enrichment (R)”: 1.11.
Under “RBNS enrichment (R)”, `ACCGCUGGUGGUAAGUCUCCAGGAGGAGCCCAGGGCCCUCUGCCGCAAGAAACAGUGUGAGCUACUGCCACGCUGAAAACUACCUGUGGGUUAAGGAUGUAGUUCCUUUG` is recorded as 0.258.
`AGAUCAAGAUAUUAAGAGGUAUCCUUGAUUUAUUUUCCAGUAUUCAGUAGUAAAAUUUUCCUGUCCACUGUGAAUCAAAGCCUGAGUCACUCUAUUUAACCUUGGACACA` — result for “RBNS enrichment (R)”: 0.329.
Under “RBNS enrichment (R)”, `AUAAUAAUAACCUGUUUUCUGGUUGUUGUUGGGGCAUGAGCUUGUGUAUACACUGCUUGCAUAAACUCAACCAGCUGCCUUUUUAAAGGGAGCUCUAGUCCUUUUUGUGU` is recorded as 0.244.
`ACUGGUGCAGAUGGUUGACAUUUUUCCCUAUUUUCCUCACUUUAUGAAAGAAUUUAAAUAAAAAAAAAGAACAUUUCUAAAACCAGAGGACAAAAGGGGUUAAUGUUACG`: “RBNS enrichment (R)” 0.366.
`GAUUGUCCAGUUCUGGUAAACAGUCUUCCAGUCAUCUCACAACCAUUAUUACAACCAUGUACAAAGGGACUCCACUCCACUGUCCCUGUACAAGGACUUUUGACAGUUUA`: “RBNS enrichment (R)” 0.444.

Some of these lines once more (study 1):
The E-score of `AGGCTATA` is reported as 0.142.
`ATCTGTCC` has an E-score of -0.153.
The E-score of `ACCCCATG` is reported as -0.0941.
For `ACATCGCT`, the E-score was 0.091.
`AATCCGGA` has an E-score of -0.0605.
The E-score of `CGGGAGTC` is reported as -0.2.
With `AATTTTCG` the E-score was 0.333.
With `ACTACGCA` the E-score was -0.11.
For `AGTTTGTC`, the E-score was 0.0715.
`AGAATTCT` gave an E-score of 0.148.
